# Measurements from different studies.
# Each line is one published result; not all experiments were run side by side. ± gives the spread as reported.
SMILES,test,system,setting,EC50
O=C(O)c1ccc(O)c(O)c1,"hydroxyl radical scavenging, in vitro",,50% scavenging,1900 ± 210 nM
Oc1ccc2ccc3ccccc3c2c1,,zebrafish embryo,,500 to 5500 nM
O=[N+]([O-])c1ccc2ccc3cccc4ccc1c2c34,developmental toxicity,zebrafish (Danio rerio) embryos,6 to 120 hpf,44800 nM
Oc1cc2c(O)cccc2c2ccccc12,,zebrafish embryo,,500 to 5500 nM
CN[C@@H](C)C/C=C/c1cncc(OC)c1,"dopamine release, releaser, item: [3H]dopamine",rat striatal synaptosomes,,6300 nM
c1ccc2c(-c3cnn4cc(-c5ccc(N6CCNCC6)cc5)cnc34)ccnc2c1,intersomitic vessel formation,zebrafish Tg(fli1:EGFP)y1 embryos,"12 to 48 hpf, about 50% of vessels inhibited",20000 nM
CN1CCC[C@H]1c1cccnc1,[3H]dopamine release,rat striatal synaptosomes,,3000 nM
Oc1cccc2c1ccc1ccccc12,,zebrafish embryo,,500 to 5500 nM
O=[N+]([O-])c1ccc2c3c(cccc13)-c1ccccc1-2,developmental toxicity,zebrafish (Danio rerio) embryos,6 to 120 hpf,2040 nM
CC(C)C[C@H](NC(=O)[C@H](Cc1ccccc1)NC(=O)[C@@H](NC(=O)[C@H](Cc1c[nH]cn1)NC(=O)[C@H](CC(=O)O)NC(=O)[C@@H](NC(=O)[C@H](CC(=O)O)NC(=O)[C@@H](N)[C@@H](C)O)C(C)C)C(C)C)C(=O)N[C@@H](CCCNC(=N)N)C(=O)N[C@@H](Cc1ccccc1)C(N)=O,heart contraction rate decrease,"Drosophila melanogaster white prepupae, pupal heart",,30 nM

# Excerpt of the above:
SMILES,test,system,setting,EC50
CC(C)C[C@H](NC(=O)[C@H](Cc1ccccc1)NC(=O)[C@@H](NC(=O)[C@H](Cc1c[nH]cn1)NC(=O)[C@H](CC(=O)O)NC(=O)[C@@H](NC(=O)[C@H](CC(=O)O)NC(=O)[C@@H](N)[C@@H](C)O)C(C)C)C(C)C)C(=O)N[C@@H](CCCNC(=N)N)C(=O)N[C@@H](Cc1ccccc1)C(N)=O,heart contraction rate decrease,"Drosophila melanogaster white prepupae, pupal heart",,30 nM
